Measurements gathered from unrelated publications.
Each numbered part is a random draw from the data of one study; scales do not carry over between parts.

Sample 1
Target: RNA binding protein fox-1 homolog 2, RRM domain, GST-SBP tag (RBFOX2, Homo sapiens, UniProt O43251-10, residues 100-194)
Method: RNA Bind-n-Seq
Molecule type: RNA
Matrix: in vitro
Concentration: 365 nM
Setting: natural RNA segment, single round, ends assumed
Relative to: no-protein control
Reading: higher = stronger binding
Quantity: RBNS enrichment (R)
All sequences stand within: GGGAGUUCUACAGUCCGACGAUC … UGGAAUUCUCGGGUGCCAA
Target sequence (chain): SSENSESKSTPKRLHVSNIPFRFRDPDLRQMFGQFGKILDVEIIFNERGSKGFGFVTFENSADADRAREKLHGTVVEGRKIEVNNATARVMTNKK
Strand = GUCAGUGGCUCAGAGAUAGGGCUGGGCAGACAUCUACCUUAGGUAAAGUGGCUCCAGGGACUUAAGUGAAGUUCACUACUCUUAUCAGCAGUGCUGGAGAGCGGAGGAUU; value = 0.45
Strand = UCCCUUUCCAAGGGACACUGGGUUUGCAGACAGCAAGGCUAUGUGGCAGAGAAGAAAAAGUCCAGCAGACUCAGGACUCCUGGGCUGCAGGCCCCCCUCUGCCCUGAUCC; value = 0.291
Strand = AAGGAUCUAACUGCUUUACAAAUAUUAAACAAGUGCUUGGGCAUGAUUGGGAGAGGAGGCAGCUUAGCUGGAAGCUGUGCCCAUCUUACUGUCACUGGAGAAUAGGAUGU; value = 3.33
Strand = CCUGCCCACAGGGCCACCUGUUGGUUUGAGAGCGUGUUCGUGUUCUCUUGCCCUCCCUGCCUAAGAGCUACUGGGAUCACGUUAGCGGGCAUUUAGGCUUUGAUGAGAGG; value = 0.304
Strand = CUAGGGGGAUGUGUUUAUAUAUACAUUUGCAUAUACCCACGGGGGAUUAUGAGCUAAUUUUUUUUAUAGGACACAGAAUUCUAUUCAAUGCUGUUAAAUAUGCAAAUAGU; value = 0.479
Strand = UGUUAAAUGGAUACUAAUGAAUAGCAUAGCAUAGUGGGUAAGAGUUUAUAUAGCACAGGCUCUAGAAUCAGAUUAAGUAGGUUCAAAUACCAGUUCUGCCAGUAACUGGU; value = 2.1
Strand = GUCAUUUCAAAGAUUUACUGUAUGUAUAGUUGAUUUUGUGGACUGAAUUUAAUGCUUCCAAAUGUUUGCAGUUACCAAACAUUGUUAUGCAAGAAAUCAUAAAAUGAAGA; value = 2.12
Strand = GAUGGACCUCUUUAUAAAGUUGGUUGCUGCAAAAUCCAGUUCUUCCAAAAGCCACUUUAUUUAGGGUUUAUUCACAAGUCAUAUCCAUUUUGGUACAGUGUUUGUUUCCU; value = 0.531
Strand = GGGUCUGCUUAACUGCCAAGAGCAGGUCCUGGAGUUCCCUUCACCUGCAGAGUCCUUUUCAUGACCUAGGAGGUCUUAUUCAAAGCCCUCAUUGACAGAGGAGGAAACAG; value = 0.221
Strand = GGAGGACCUUUCCUUGGGGCCCUGCUUCAUGACGAUGCUGCCUGUGUCACCCUCUACCAUCUGUAAACAACUGGGUGCCUUCCCCGACCACACCCCAAUGCCUUCCCAGC; value = 0.514
Strand = CUUGUAGGGAAGGGACAAGCUGCAGAGGAACAGUGAUUUAAAGGCCCUUGGAGCUAGUCCCCUCAGCCUCAACUUUGAUCUGGCCUUUAGCCUCAAAGCUGCUGUACCUG; value = 0.303
Strand = AAUGAGCAAUUCUGGGAAUCACGCAGUGGGUUUUAAGGUAGUUAAUAUCUAUGGUAUAUUAAAAGGAGCAGUCAUCAUAUACUACUGCAUUUCCACUGAAGAGCCAAAAG; value = 0.424

Sample 2
Target: Ras GTPase-activating protein-binding protein 1, full length (G3BP1, Homo sapiens, UniProt Q13283)
Chain of UniProt Q13283 (whole entry, looked up): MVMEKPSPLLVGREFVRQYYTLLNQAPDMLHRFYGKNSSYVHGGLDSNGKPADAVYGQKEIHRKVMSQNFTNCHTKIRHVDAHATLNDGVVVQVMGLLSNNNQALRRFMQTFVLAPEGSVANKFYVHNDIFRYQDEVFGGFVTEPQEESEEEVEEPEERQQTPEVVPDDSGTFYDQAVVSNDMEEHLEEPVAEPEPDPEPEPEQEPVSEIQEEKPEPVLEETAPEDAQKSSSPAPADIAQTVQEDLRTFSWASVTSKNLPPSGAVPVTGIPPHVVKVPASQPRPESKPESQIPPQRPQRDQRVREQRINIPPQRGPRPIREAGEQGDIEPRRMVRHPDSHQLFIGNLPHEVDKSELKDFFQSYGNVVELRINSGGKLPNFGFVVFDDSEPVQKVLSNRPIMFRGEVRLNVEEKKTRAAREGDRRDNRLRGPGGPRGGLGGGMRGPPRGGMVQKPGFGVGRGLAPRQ
Method: RNA Bind-n-Seq
Molecule type: RNA
Matrix: in vitro
Concentration: 200 nM
Setting: whole 134-nt RNA, ends assumed
Together with: 150 mM LiCl
Relative to: input library
Reading: higher = stronger binding
Quantity: log2 enrichment
All molecules: 7-deaza-guanosine replaces G
All sequences stand within: GGGAGUUCUACAGUCCGACGAUC … UGGAAUUCUCGGGUGUCAAGG
Strand = CUGUGCUACACAUCGUAUGUACCGAAUCGGGUUUUUUUGGUUUUUUUGGGUUUUUUUGGGGAAAGUAUUAUGUUACGCCGUUCGGAUCUG; value = 0.978
Strand = AGUCCUGUGCUACACAUCGUAUGUACCGAAUCGGGAAAGGGAAAGGGUUUUUUUGGGAAAGUAUUAUGUUACGCCGUUCGGAUCUGCACU; value = -1.14
Strand = UGUGCUACACAUCGUAUGUACCGAAUCGGGGAAAAAAAGGGAAAAAAAGGGGAAAAAAAGGGGAAAGUAUUAUGUUACGCCGUUCGGAUC; value = 0.644
Strand = GCAGGAAGUAAAAACAAAUGGAAAUGCUUCGGAUAGUGGCAGAGGUGGGGGUUGCUAAGGAAAGGGUGGGAUGGGAGUGGGUAAAGAGUU; value = 0.133
Strand = AGUCCUGUGCUACACAUCGUAUGUACCGAAUCGGGUUUUUGGGGUUUUUGGUUUUUGGAAAGUAUUAUGUUACGCCGUUCGGAUCUGCAC; value = -0.37
Strand = ACCAUGCAGGUGGGCAUCUUUGGGAAGUGGGGCAAGGGGGGGAUAGGGAGGGGGGUAACACUUUGGGAACAGGUGGUGCCAGGUCGUUUC; value = -0.556
Strand = CAAGUCCUGUGCUACACAUCGUAUGUACCGAAUCGGGAGGGAAAAAAAGGGUGGGAAAGUAUUAUGUUACGCCGUUCGGAUCUGCACUUC; value = -0.385

Sample 3
Target: RING finger protein unkempt homolog, zinc fingers 1-6, GST-SBP tag (UNK, Homo sapiens, UniProt Q9C0B0, residues 30-357)
Method: RNA Bind-n-Seq
Molecule type: RNA
Matrix: in vitro
Concentration: not given
Setting: RNA with constant flanks, human and mouse sites, ends assumed
Relative to: input RNA pool
Reading: higher = stronger binding
Quantity: bound/input enrichment
All sequences stand within: GGGAGUUCUACAGUCCGACGAUC … CAACAGAGGAUUGAGCAUCA
Target sequence (chain): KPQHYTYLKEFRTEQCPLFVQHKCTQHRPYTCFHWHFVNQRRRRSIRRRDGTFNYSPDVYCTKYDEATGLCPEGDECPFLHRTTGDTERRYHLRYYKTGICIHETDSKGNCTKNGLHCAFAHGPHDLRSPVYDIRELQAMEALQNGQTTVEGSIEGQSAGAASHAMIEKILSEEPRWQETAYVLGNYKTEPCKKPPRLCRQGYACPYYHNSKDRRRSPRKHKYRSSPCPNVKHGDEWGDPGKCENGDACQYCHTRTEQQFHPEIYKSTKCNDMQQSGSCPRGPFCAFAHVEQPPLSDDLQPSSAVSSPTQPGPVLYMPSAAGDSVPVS
Strand = ACAGCUAUGUACAGCAUACGAAUCAUUUACUUCGUAACAAUAACAAAACCGCGUUUUCCCCCCCUAAUCUCCAUUAACGAAAAUGACCCAGACCUCAUAAACCCAAUCAAACGCCUAGCA; value = 1.77 ratio
Strand = UACCAGAGGAUGUACUAUGUGUUCAUAUCCAUGCUGUCCAGUGGGCCUGCCUGGCUGGGUAUCAUACUGCUUGUCACGGUCGGCCUCCUCCCUGACGUCCUCAAGAAGGUCCUGUGUAGG; value = 0.123 ratio
Strand = CAAAAAAUGGUGCCUCCGGAUGCUCCUUCUUCUGUGAGCACAGGCUCCCCUCAGCCCCCUAGCUUCACCUAUGCUCAGCAGAAGGAGAAGCCCCUAGUUCAAGAGAAGCAGCACCCACAG; value = 0.354 ratio
Strand = UCACCAUUUGAUCAAAUGAAGACUGCUUCCAAUAUAGGUGGAUUUAAUGCAGCAAUUAAAAACAGUCCGCCUGCCAUGUCUCAGUACAUCACUGUGGGCUCCAGUCCGUUCACUGGCUUC; value = 0.128 ratio
Strand = AUCAACACCCAGGAACAGGGACCAGAUGAAGGAGAGGAGAAGGCAGCAGGAGAGGCUGAGGAGGAUGAUGAAGACGAAGAGGAGGAGGAGGAGGAGGAGGACUUGUCUUCUCCUCCAGGG; value = 0.281 ratio
Strand = AUUGAACAGCACUAUUUUGAAGAUCGUGGUAAAGGCAGGCUGUCAUAGAGUUAUGUGUUAGUCUCAGGAGUCUUAACUUUUGAAAUAUGUUUUACUUGAAUGUUACAUUAGAUAUUGGUG; value = 15 ratio
Strand = UAGCAUGGAUUCUUUUUCCAUUUAUUGAAUGUGAGGGAUUUCGAUUGUUUCCAGUUCUUUUAGUUCAGUUUGUAUUGAAUACAUAUAACAAUGUGGUUUCUUACUGUUGGUGAUGGGUCA; value = 1.37 ratio
Strand = AGCGGCUACAAGACCCUGGGUUCACUCCCCAGAACCACCAGAGGGUAAACACCAGACCUCUAGGUAAAAAUGAUAAAGUUAUUUUCUUGUUAUACAGUUUAGAGUGUUGCCUUUCACAUU; value = 0.577 ratio
Strand = GCAGCAGCCUCCACUGAGUUUGAGAAUGCUGAAUCUGAGGCUGAUUUCAGUAUCCAUUUCAAUAGGUUCAACCCUGAUGGGGAAGAGGAGGAUGUUACAGUACACGAAUGACGUUUCCUU; value = 0.0806 ratio
Strand = GAUAUUGUGCUUGCCAUCCUUGAAUUACUAAAGUAUCAUCAGAGAGUCUUAUAUAUUGAUAUAGAUAUUCAUCAUGGUGAUGGUGUUGAAGAAGCUUUUUAUACAACAGAUCGUGUAAUG; value = 0.348 ratio
Strand = CCUGCACGCCCCGAGGCGGACCCCGGCUCUGACUGCUCCCCUGGCCGCGGGCUUCUCGACUGGGACGCGGCGCGAGGAGGGAGCGCGGCGGCCCCGAGUCUCCCUGAGCCAUGGGCAACG; value = 0.161 ratio

Other studies, line by line
Substance = PhoQ, residues 284 288 289 292 302 303 TASMAF; target = PhoP, residues 12 14 15 18 19 IQFRS (Escherichia coli, UniProt P23836); assay = Sort-seq, measured: YFP reporter; system = E. coli; setting = PhoQ-PhoP variant library, together with: 10 µM Mg2+; scale = relative to: high Mg2+ state, higher = stronger signaling; quantity = fold induction; value = 20.3

Some of these lines once more (sample 3):
Strand = ACAGCUAUGUACAGCAUACGAAUCAUUUACUUCGUAACAAUAACAAAACCGCGUUUUCCCCCCCUAAUCUCCAUUAACGAAAAUGACCCAGACCUCAUAAACCCAAUCAAACGCCUAGCA; value = 1.77 ratio
Strand = UACCAGAGGAUGUACUAUGUGUUCAUAUCCAUGCUGUCCAGUGGGCCUGCCUGGCUGGGUAUCAUACUGCUUGUCACGGUCGGCCUCCUCCCUGACGUCCUCAAGAAGGUCCUGUGUAGG; value = 0.123 ratio
Strand = CAAAAAAUGGUGCCUCCGGAUGCUCCUUCUUCUGUGAGCACAGGCUCCCCUCAGCCCCCUAGCUUCACCUAUGCUCAGCAGAAGGAGAAGCCCCUAGUUCAAGAGAAGCAGCACCCACAG; value = 0.354 ratio
Strand = UCACCAUUUGAUCAAAUGAAGACUGCUUCCAAUAUAGGUGGAUUUAAUGCAGCAAUUAAAAACAGUCCGCCUGCCAUGUCUCAGUACAUCACUGUGGGCUCCAGUCCGUUCACUGGCUUC; value = 0.128 ratio
Strand = AUCAACACCCAGGAACAGGGACCAGAUGAAGGAGAGGAGAAGGCAGCAGGAGAGGCUGAGGAGGAUGAUGAAGACGAAGAGGAGGAGGAGGAGGAGGAGGACUUGUCUUCUCCUCCAGGG; value = 0.281 ratio
